Published values gathered from unrelated publications.
A part holds a random share of what one study measured.

Series 1 — technique: protein-binding microarray; molecule type: double-stranded DNA, one strand shown; matrix: in vitro; tested at: 2200 nM top; setting: 60-bp whole probe; together with: salmon DNA 0.4 mg/ml; relative to: random background probes; reading: higher = stronger binding; shared flanks, not repeated: GCCTAGCAC … GTCTTGATTCGCTTGACGCTGCTG
Target: Interferon regulatory factor 7, full length, phosphomimetic (IRF7, Homo sapiens, UniProt Q92985, residues 1-503, S471D/S472D/S475D/S476D/S477D/S483D/S484D/S487D)
Residues (chain): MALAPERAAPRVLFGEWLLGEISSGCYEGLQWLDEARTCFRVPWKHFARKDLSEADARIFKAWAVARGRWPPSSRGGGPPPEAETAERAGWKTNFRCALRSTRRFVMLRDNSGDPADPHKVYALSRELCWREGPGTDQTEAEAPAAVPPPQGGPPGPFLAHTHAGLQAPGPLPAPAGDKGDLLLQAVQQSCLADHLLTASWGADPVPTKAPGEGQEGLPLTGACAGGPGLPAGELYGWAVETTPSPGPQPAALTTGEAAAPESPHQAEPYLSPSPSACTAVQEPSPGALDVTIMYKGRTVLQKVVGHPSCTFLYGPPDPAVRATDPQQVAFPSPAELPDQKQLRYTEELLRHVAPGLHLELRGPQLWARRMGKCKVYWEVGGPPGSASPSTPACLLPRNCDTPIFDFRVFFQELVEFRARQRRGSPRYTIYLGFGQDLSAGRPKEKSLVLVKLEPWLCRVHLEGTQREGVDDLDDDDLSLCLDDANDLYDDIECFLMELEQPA
`TTAGGTCTACTTCTCCTTTAGTGCTAG`: “fitted relative affinity” 1.06 z-score.
Under “fitted relative affinity”, `GACGGACTGCTTCTCCCGACGTGCTAG` is recorded as 0.539 z-score.
`TTCGGACTGCTTTTCCTTTAGTGCTAG`: “fitted relative affinity” 1.91 z-score.
`TTTTCTCTCCCATTCTGAATGTGCTAG` — result for “fitted relative affinity”: 3 z-score.
For `GACGGTATCGGGTTTCGAGACGTGCTA`, “fitted relative affinity” read 1.45 z-score.
Under “fitted relative affinity”, `TATTTTCCTTTAAACTTTTAGTGCTAG` is recorded as 3.1 z-score.
For `TCACCTTTTATATTGTAACTGTGCTAG`, “fitted relative affinity” read 1.8 z-score.
`GACGGTATCGGACTGGGGAGGTGCTAG` — result for “fitted relative affinity”: -0.15 z-score.
`TTAGTTCTCGGTTTCGGTTAGTGCTAG`: “fitted relative affinity” 7.85 z-score.
`GACGATTTCAGTATCGAGCCGTGCTAG` — result for “fitted relative affinity”: 0.799 z-score.
`TTAAGTTTCGGTTCCGGTTAGTGCTAG` — result for “fitted relative affinity”: 12.9 z-score.
Under “fitted relative affinity”, `GACGATATCAGTTTCCAGACGTGCTAG` is recorded as 1.62 z-score.
`TTAGATTTCCGGACTGGATTAGTGCTA`: “fitted relative affinity” 0.282 z-score.
For `CACGGTATCGGGACTGGGGACGTGCTA`, “fitted relative affinity” read -0.335 z-score.
`TTAGGTATCGGTCTCGATTAGTGCTAG` — result for “fitted relative affinity”: 0.498 z-score.
For `TTAGGTCTCCTTATCCTTTAGTGCTAG`, “fitted relative affinity” read 0.875 z-score.
Under “fitted relative affinity”, `GACGGTATCGGCTTCGGGACGTGCTAG` is recorded as -0.109 z-score.
For `TATAATTTTGTCATCTATAAGTGCTAG`, “fitted relative affinity” read 0.55 z-score.
For `TTAGGGATCCTTTTCCTTTAGTGCTAG`, “fitted relative affinity” read 0.737 z-score.
`TTAGGACTGGACTACCGGTTAGTGCTA`: “fitted relative affinity” -0.773 z-score.
For `GACGGGATCCTTTTCCTGACGTGCTAG`, “fitted relative affinity” read 0.801 z-score.
Under “fitted relative affinity”, `TCACCTTCCCCTCTAGGACTGTGCTAG` is recorded as 1.77 z-score.
`TCTGTTTTCTCCATGGAAGAGTGCTAG` — result for “fitted relative affinity”: 3 z-score.
For `TCACCTTTCTCAACCTCACTGTGCTAG`, “fitted relative affinity” read 2.48 z-score.

Series 2 — technique: RNA Bind-n-Seq; molecule type: RNA; matrix: in vitro; tested at: 365 nM; relative to: no-protein control; reading: higher = stronger binding
Target: RNA binding protein fox-1 homolog 2, RRM domain, GST-SBP tag (RBFOX2, Homo sapiens, UniProt O43251-10, residues 100-194)
Setting: natural RNA segment, single round, ends assumed
Shared flanks, not repeated: GGGAGUUCUACAGUCCGACGAUC … UGGAAUUCUCGGGUGCCAA
Target sequence (chain): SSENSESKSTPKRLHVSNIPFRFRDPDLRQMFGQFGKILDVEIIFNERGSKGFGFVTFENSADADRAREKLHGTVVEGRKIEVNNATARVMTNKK
`CGUGUAGGUGCCACGGCUCCACUCUGUUCCUCUCUGCUUUGUUCUUCCCUGGACUGAGCUCAGCGCAGGCUGUGACCCCAGGAGGGCCCUGCCACGGGCCACUGGCUGCU`: “RBNS enrichment (R)” 0.358.
Under “RBNS enrichment (R)”, `UAUGUGUAGACAAGCUCUCGCUCUGUCACCCAGGCUGGAGUGCAGUGGUGCAAUCAUGGUUCACUGCAGUCUUGACCUUUUGGGCUCAAGUGAUCCUCCCACCUCAGCCU` is recorded as 0.206.
Under “RBNS enrichment (R)”, `GGAUUUUCUUUUAAACUAAACCUUUCUACUCGCCCGGAAAAAUUCCUUGGAGAUAUCGAAGUAUGGGAUCAAGCUGAGAAAGAACUUGAAAACAGUCUGAAUGAAUUUGG` is recorded as 0.397.
`AUAGAUAUGCACCUUUUUCUACAUGUAUGGCCUUUACUUACUACACAGCAAGUAGGCCUCAAAGUAAUCUUCCUCUUUCCCAUCAAUCAUCUUCUGCCAAGCAUUCAGGC` — result for “RBNS enrichment (R)”: 2.91.
Under “RBNS enrichment (R)”, `GUUGUCAUUUGAAACUCUUCACAUAAAAUUUUCUAAUAUUCAUUUGGAAAACCUCUCCACUGGAGAGGUUUCAUCUCUGAGAGGUUUUGUAAUAAUAGUGUAAGUUCAGU` is recorded as 0.458.
`UAUCCCCAGCCCAGUCUUCCUCCUCCAUCCUUAAGCAGUAUAAAUGCUAUGUGCCCUCUUCACUUAGAGCGAGCUUUAGUGUGUCAAGGGACUCUGCUUUCCUGUACUUC`: “RBNS enrichment (R)” 0.408.
For `UCUGAGAAGUGCAGGGGAGACAAAUGAAUGCAGUGUCCAUCCAGCUCUGGGUUUUCUUUAUCCUGCCUCCCGAGACUUCUGACCCCCCUUUCCCAGCUUCAGAUCUUGGG`, “RBNS enrichment (R)” read 2.09.
`ACUCUUUAUAAAAUAAAGUGUUAGGUAAAUUGAGAAGACCAUUCCAUCAUUGAAGUGUUGGGAUAUGAAUACAUUCCAGAGCAUAGCCUUUUGUAAUUUUAGGUAGUUAU`: “RBNS enrichment (R)” 0.554.
`CACCCCCCGGCAUCCUGGAGAGCAUGAGCUGUUUCCAAAAUCGGAUUCUCAGCUGUCACUGUUUCUUCCAAAAGUUGCUAUUUAUACAAGGGUAUCAGCUUUUCCUUAGA` — result for “RBNS enrichment (R)”: 4.3.
`GAACCUGCACUUGGUGCUAAUCUGAGGGGAGGAAGGUGGGCAGGGUCUUGGACUCAAAGGCUAAACUGAUCCAGUCCUUUCUCCUUUGUGUCAAUAAAAGGCUAAACUGA`: “RBNS enrichment (R)” 0.274.
For `ACUAGAGGUGGGUGACCUAUGGUUAUGUGGCACGGCAAAGCAAGUACCUCUUAAGGGACUCUAAUAUAUGCUAACGCUGGUCCUCUUAGCUCUGUGCUCUCACCAGACAA`, “RBNS enrichment (R)” read 0.305.
`GGAAAUCAUGUUCUUUUUUUAUAUCUCUAUAUAUAAGAUACAGAGUUGUUUGGUAAGGUUUGGGGUGUUUUUUGUUUUGUUUUGUUUUAAGUUUCCAAACAACCAAACUA` — result for “RBNS enrichment (R)”: 2.93.

Series 3 — technique: RNA Bind-n-Seq; molecule type: RNA; matrix: in vitro; tested at: 200 nM; setting: whole 134-nt RNA, ends assumed; together with: 150 mM KCl; relative to: input library; reading: higher = stronger binding
Target: Fragile X messenger ribonucleoprotein 1, C-terminal low-complexity region (Fmr1, Mus musculus, UniProt P35922)
Shared flanks, not repeated: GGGAGUUCUACAGUCCGACGAUC … UGGAAUUCUCGGGUGUCAAGG
`CAAGUCCUGUGCUACACAUCGUAUGUACCGAAUCGGAAAGGAAAAAAAGGAAAGGAAAGUAUUAUGUUACGCCGUUCGGAUCUGCACUUC` gave a log2 enrichment of -0.819.
The log2 enrichment of `UUCCCUGGUGUGAUUCCGUCCUGCGCGGUUGUUCUCUGGAGCAGCGUUCUUUUAUCUCCGUCCGCCUUCUCUCCUACCUAAGUGCGUGCC` is reported as 0.545.
The log2 enrichment of `AGUCCUGUGCUACACAUCGUAUGUACCGAAUCGGCCCCGGGGCCCCGGGGCCCCGGGAAAGUAUUAUGUUACGCCGUUCGGAUCUGCACU` is reported as -0.482.
`CUCAAGUCCUGUGCUACACAUCGUAUGUACCGAAUCGGAAGGGGAAGGGAAGGGAAAGUAUUAUGUUACGCCGUUCGGAUCUGCACUUCC` gave a log2 enrichment of 0.953.
With `AAGUCCUGUGCUACACAUCGUAUGUACCGAAUCGGGAAAGGGAAAGGGUUUUUGGGAAAGUAUUAUGUUACGCCGUUCGGAUCUGCACUU` the log2 enrichment was 0.3.
For `UCAAGUCCUGUGCUACACAUCGUAUGUACCGAAUCGGUUUUUUUGGAGGUUUGGAAAGUAUUAUGUUACGCCGUUCGGAUCUGCACUUCC`, the log2 enrichment was -0.68.
`AGUCCUGUGCUACACAUCGUAUGUACCGAAUCGGGUUUUUUUGGGUUUUUGGGAGGGAAAGUAUUAUGUUACGCCGUUCGGAUCUGCACU` has a log2 enrichment of 0.698.
With `ACUGAUGAGAGCCUGAGGAGCCAUUUUGAGCAAUGGGGAACGCUCACGGACUGUGUGGUAAGAUUUGGAAGGGACAAAGCAGUAAAACAG` the log2 enrichment was 0.249.
With `AAGUCCUGUGCUACACAUCGUAUGUACCGAAUCGGGAAAGGGUUUUUUUGGGUGGGAAAGUAUUAUGUUACGCCGUUCGGAUCUGCACUU` the log2 enrichment was 0.824.
`AAGUCCUGUGCUACACAUCGUAUGUACCGAAUCGGUUUUUGGAAAAAGGAAAAAGGAAAGUAUUAUGUUACGCCGUUCGGAUCUGCACUU` has a log2 enrichment of -0.852.
The log2 enrichment of `UCAAGUCCUGUGCUACACAUCGUAUGUACCGAAUCGGGGUGGGGUGGGGAGGGGAAAGUAUUAUGUUACGCCGUUCGGAUCUGCACUUCC` is reported as 1.41.
With `ACCAUGCAGGUGGGCAUCUUUGGGAAGUGGGGCAAGGGGGGGAUCGGGAGGGGGGUAACACUUUGGGAACAGGUGGUCCCAGGUCGUUUC` the log2 enrichment was 0.721.
With `CACAGACAACACGCACCCACACAGACACAGAGGGAAGGGGUAAAGAUGGGGACAGGGUGCACAGCAGGGCGGGGUAGGACCCCAGCCCCU` the log2 enrichment was 0.605.
The log2 enrichment of `ACCAUGCAGGUGGGCAUCUUUGGGAAGUGGGGAAAGGGGGGGAUAGGGAGGGGGGUAACACUUUGGGAACAGGUGGUCCCAGGUCGUUUC` is reported as 0.626.

Series 4 — technique: RNA Bind-n-Seq; molecule type: RNA; matrix: in vitro; tested at: 20 nM; setting: 6-mer, flanks averaged, single round; together with: 150 mM LiCl; relative to: input library; reading: higher = stronger binding
Target: TAR DNA-binding protein 43, full length, His tag (TARDBP, Homo sapiens, UniProt Q13148, residues 1-414)
`CCGGCA` — result for “6-mer enrichment (R)”: 0.898.
For `AAGGGU`, “6-mer enrichment (R)” read 1.06.
For `UUUGUA`, “6-mer enrichment (R)” read 1.25.
`UCAAGG`: “6-mer enrichment (R)” 0.855.
`UGAUUU`: “6-mer enrichment (R)” 1.01.
For `UUACAA`, “6-mer enrichment (R)” read 0.894.
`AGGAGU`: “6-mer enrichment (R)” 1.03.
`ACGUCU`: “6-mer enrichment (R)” 0.855.
`GUGGCC` — result for “6-mer enrichment (R)”: 1.15.
`GGCCUG` — result for “6-mer enrichment (R)”: 1.02.
Under “6-mer enrichment (R)”, `GGCUAC` is recorded as 0.876.
`UUAAAA` — result for “6-mer enrichment (R)”: 0.947.
`AAUCAG`: “6-mer enrichment (R)” 0.819.
`UUAGGA` — result for “6-mer enrichment (R)”: 0.942.
Under “6-mer enrichment (R)”, `UGCUUG` is recorded as 1.16.
For `CCCAGU`, “6-mer enrichment (R)” read 1.01.
`UUUACU` — result for “6-mer enrichment (R)”: 1.03.
For `CCCCGG`, “6-mer enrichment (R)” read 1.08.
`GCAGCU` — result for “6-mer enrichment (R)”: 0.918.
`UUUCUG` — result for “6-mer enrichment (R)”: 1.07.
Under “6-mer enrichment (R)”, `GGUGCU` is recorded as 1.07.
Under “6-mer enrichment (R)”, `CCAGGA` is recorded as 0.895.
`AAUUAC` — result for “6-mer enrichment (R)”: 0.905.

For quick reference, copied from above (series 4):
`AGGAGU`: “6-mer enrichment (R)” 1.03.
`ACGUCU`: “6-mer enrichment (R)” 0.855.
`GUGGCC` — result for “6-mer enrichment (R)”: 1.15.
`GGCCUG` — result for “6-mer enrichment (R)”: 1.02.
Under “6-mer enrichment (R)”, `GGCUAC` is recorded as 0.876.
